Assay results gathered from unrelated publications.
Each numbered part is a random draw from the data of one study; scales do not carry over between parts.
UniProt Q9Y271, sequence (whole entry, looked up): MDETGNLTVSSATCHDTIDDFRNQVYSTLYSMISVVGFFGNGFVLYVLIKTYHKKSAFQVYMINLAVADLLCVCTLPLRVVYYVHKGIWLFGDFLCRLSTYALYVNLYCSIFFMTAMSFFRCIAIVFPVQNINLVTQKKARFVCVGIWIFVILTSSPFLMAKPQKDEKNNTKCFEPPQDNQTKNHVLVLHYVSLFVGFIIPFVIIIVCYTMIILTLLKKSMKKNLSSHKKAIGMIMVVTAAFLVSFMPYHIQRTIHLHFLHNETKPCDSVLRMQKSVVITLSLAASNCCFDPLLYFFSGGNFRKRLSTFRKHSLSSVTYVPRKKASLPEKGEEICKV
UniProt P25025, sequence (whole entry, looked up): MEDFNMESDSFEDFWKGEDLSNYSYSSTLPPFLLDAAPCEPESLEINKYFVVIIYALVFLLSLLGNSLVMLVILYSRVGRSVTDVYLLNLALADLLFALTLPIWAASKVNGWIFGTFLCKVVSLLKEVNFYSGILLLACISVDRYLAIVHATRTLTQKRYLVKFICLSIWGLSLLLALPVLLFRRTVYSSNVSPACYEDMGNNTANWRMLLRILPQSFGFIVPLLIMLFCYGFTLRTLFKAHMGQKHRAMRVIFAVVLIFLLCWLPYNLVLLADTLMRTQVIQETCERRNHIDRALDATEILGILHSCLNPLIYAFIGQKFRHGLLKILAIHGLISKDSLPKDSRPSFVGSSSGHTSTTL
UniProt P09619, sequence (whole entry, looked up): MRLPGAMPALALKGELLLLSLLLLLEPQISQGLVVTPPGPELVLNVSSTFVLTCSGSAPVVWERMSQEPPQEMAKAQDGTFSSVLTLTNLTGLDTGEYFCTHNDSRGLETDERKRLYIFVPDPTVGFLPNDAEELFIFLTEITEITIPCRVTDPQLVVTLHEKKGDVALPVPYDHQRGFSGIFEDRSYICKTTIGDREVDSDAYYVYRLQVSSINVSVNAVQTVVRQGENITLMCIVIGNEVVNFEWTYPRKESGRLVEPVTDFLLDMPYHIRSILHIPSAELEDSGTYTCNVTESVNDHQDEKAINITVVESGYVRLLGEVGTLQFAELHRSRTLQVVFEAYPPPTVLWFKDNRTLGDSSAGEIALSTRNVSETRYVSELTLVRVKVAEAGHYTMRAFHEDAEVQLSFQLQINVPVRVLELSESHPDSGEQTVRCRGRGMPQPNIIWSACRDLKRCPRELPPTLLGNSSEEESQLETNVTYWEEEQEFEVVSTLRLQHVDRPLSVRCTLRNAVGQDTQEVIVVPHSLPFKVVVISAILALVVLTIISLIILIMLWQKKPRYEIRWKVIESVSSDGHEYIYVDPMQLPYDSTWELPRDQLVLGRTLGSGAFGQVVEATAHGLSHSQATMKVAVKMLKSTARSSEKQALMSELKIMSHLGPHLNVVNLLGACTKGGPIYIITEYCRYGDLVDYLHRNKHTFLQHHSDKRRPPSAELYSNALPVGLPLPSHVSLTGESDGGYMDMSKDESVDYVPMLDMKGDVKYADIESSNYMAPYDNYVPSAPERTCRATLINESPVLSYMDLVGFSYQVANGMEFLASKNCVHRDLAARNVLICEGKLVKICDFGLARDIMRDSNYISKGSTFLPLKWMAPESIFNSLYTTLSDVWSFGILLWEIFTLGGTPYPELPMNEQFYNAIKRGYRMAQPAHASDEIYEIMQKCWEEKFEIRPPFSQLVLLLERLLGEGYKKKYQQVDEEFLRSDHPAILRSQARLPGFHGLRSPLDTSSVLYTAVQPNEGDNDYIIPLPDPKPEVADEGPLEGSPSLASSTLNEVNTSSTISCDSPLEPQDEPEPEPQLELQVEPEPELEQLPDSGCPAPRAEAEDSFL
UniProt P07333, sequence (whole entry, looked up): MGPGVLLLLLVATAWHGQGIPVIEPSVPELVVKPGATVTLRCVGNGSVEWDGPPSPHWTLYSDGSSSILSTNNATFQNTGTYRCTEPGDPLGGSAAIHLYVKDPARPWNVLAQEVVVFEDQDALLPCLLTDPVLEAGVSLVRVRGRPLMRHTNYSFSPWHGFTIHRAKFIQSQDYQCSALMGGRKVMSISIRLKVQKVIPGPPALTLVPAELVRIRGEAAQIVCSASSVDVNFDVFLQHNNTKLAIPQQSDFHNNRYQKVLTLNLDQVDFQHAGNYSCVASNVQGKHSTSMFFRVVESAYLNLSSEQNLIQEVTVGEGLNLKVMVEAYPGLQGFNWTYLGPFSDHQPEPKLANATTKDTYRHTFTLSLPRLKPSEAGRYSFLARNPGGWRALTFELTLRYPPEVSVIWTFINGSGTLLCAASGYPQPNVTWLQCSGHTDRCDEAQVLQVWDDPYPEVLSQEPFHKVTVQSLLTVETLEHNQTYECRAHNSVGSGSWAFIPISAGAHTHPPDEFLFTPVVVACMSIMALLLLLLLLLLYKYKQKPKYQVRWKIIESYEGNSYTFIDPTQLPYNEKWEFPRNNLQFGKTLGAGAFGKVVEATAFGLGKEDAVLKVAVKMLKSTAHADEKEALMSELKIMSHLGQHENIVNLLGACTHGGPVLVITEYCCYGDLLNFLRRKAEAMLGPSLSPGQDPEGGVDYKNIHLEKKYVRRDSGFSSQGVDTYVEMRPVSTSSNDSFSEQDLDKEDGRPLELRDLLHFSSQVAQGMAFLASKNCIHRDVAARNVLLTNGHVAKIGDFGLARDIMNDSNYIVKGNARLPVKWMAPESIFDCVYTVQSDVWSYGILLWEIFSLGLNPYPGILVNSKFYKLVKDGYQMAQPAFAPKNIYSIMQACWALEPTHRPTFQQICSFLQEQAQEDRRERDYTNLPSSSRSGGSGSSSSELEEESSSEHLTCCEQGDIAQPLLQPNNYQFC
UniProt Q8WU08, sequence (whole entry, looked up): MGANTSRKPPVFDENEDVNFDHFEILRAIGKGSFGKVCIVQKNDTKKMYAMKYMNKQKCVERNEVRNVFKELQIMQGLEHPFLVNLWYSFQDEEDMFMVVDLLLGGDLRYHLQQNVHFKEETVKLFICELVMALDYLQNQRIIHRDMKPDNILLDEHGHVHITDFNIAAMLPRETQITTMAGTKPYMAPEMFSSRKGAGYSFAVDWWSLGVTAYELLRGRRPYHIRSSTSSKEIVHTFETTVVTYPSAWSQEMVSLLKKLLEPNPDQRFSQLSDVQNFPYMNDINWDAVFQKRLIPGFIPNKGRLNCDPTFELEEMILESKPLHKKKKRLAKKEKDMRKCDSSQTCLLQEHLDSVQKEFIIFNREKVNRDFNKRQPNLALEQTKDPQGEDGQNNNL
UniProt P51684, sequence (whole entry, looked up): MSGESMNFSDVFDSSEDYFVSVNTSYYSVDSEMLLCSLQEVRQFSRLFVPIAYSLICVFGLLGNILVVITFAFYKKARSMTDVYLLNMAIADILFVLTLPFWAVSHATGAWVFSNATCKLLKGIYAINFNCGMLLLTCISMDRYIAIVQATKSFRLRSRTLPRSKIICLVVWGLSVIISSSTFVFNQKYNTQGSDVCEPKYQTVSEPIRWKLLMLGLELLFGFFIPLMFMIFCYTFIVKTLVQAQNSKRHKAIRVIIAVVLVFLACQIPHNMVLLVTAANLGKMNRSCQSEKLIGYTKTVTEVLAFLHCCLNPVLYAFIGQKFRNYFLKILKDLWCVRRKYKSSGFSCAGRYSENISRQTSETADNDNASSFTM
UniProt P49190, sequence (whole entry, looked up): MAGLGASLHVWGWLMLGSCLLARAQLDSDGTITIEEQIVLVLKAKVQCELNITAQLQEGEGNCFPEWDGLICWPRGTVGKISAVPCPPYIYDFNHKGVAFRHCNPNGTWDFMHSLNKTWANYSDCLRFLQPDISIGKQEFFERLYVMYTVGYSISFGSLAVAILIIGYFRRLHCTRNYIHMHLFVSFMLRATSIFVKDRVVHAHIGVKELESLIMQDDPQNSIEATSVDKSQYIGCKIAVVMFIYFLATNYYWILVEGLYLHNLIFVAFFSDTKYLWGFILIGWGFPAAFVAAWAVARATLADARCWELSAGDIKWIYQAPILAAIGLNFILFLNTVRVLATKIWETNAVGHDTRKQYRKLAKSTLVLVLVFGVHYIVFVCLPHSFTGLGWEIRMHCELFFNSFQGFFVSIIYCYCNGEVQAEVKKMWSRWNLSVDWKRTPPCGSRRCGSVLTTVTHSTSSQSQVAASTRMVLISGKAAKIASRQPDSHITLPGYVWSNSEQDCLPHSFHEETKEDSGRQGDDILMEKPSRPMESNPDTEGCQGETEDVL
UniProt P33032, sequence (whole entry, looked up): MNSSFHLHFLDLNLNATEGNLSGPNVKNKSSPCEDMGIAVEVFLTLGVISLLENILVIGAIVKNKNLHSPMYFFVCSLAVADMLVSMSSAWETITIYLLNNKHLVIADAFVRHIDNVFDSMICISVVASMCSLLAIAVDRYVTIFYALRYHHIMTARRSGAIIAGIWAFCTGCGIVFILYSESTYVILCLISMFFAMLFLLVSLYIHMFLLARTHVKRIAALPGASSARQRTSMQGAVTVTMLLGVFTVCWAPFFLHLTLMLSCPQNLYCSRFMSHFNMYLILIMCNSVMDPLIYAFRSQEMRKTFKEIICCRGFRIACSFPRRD

Block 1
SMILES: COc1ccc2cc(OCC3(C(=O)O)CN(C(=O)c4ccc(F)cc4)C3)ccc2c1
Technique: competition with immobilised ligand
Tested at: 1 µM
target | test | remaining binding [%]
CAMK1 (Homo sapiens, UniProt Q14012) | cell-free assay | 100
IKBKE (Homo sapiens, UniProt Q14164) | cell-free assay | 95
STK32A (Homo sapiens, UniProt Q8WU08) | cell-free assay | 97
Tyrosine-protein kinase ABL1, phosphorylated (ABL1, Homo sapiens, UniProt P00519, Y253F) | cell-free assay | 100
ALK (Homo sapiens, UniProt Q9UM73, C1156Y) | cell-free assay | 79
ERBB4 (Homo sapiens, UniProt Q15303) | cell-free assay | 100
RIOK3 (Homo sapiens, UniProt O14730) | cell-free assay | 97
VRK2 (Homo sapiens, UniProt Q86Y07) | cell-free assay | 100
LYN (Homo sapiens, UniProt P07948) | cell-free assay | 85
INSRR (Homo sapiens, UniProt P14616) | cell-free assay | 67
PRKG2 (Homo sapiens, UniProt Q13237) | cell-free assay | 85
SGK2 (Homo sapiens, UniProt Q9HBY8) | cell-free assay | 87
WEE2 (Homo sapiens, UniProt P0C1S8) | cell-free assay | 100
EGFR (Homo sapiens, UniProt P00533, del747-752/P753S) | cell-free assay | 87
HIPK3 (Homo sapiens, UniProt Q9H422) | cell-free assay | 100
IRAK3 (Homo sapiens, UniProt Q9Y616) | cell-free assay | 100
ACVR2B (Homo sapiens, UniProt Q13705) | binding | 100
DCLK2 (Homo sapiens, UniProt Q8N568) | cell-free assay | 100
PIP4K2B (Homo sapiens, UniProt P78356) | cell-free assay | 74
Macrophage colony-stimulating factor 1 receptor, autoinhibited (CSF1R, Homo sapiens, UniProt P07333) | cell-free assay | 75
CDK14 (Homo sapiens, UniProt O94921) | cell-free assay | 100
PDGFRB (Homo sapiens, UniProt P09619) | cell-free assay | 100

Block 2
Target: Calcium/calmodulin-dependent protein kinase type II subunit alpha (CAMK2A, Homo sapiens, UniProt Q9UQM7)
UniProt Q9UQM7, sequence (whole entry, looked up): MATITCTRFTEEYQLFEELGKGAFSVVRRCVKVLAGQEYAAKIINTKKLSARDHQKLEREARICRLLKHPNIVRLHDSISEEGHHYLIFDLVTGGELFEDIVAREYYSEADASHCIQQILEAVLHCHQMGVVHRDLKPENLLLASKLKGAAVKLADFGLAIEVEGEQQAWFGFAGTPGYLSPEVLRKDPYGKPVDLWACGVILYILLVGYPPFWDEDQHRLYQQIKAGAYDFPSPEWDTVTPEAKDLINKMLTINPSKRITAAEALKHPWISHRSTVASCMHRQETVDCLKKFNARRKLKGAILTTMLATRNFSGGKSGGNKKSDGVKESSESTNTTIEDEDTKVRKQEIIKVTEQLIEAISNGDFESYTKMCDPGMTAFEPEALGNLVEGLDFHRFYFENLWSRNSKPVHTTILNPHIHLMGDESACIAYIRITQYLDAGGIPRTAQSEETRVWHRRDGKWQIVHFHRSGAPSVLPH
Effect on: enzyme activity
Action: inhibitor
Tested at: 10 µM
SMILES | inhibition [%]
CC(C)/N=c1\cc2n(-c3ccc(Cl)cc3)c3ccccc3nc-2cc1Nc1ccc(Cl)cc1 | 9
CC(C)(C)NC[C@H](O)COc1cccc2c1CCCC2=O | -6
CC1(C)CC[C@]2(C(=O)O)CC[C@]3(C)C(=CC[C@@H]4[C@@]5(C)CC[C@H](O[C@@H]6O[C@H](C(=O)O)[C@@H](O[C@@H]7O[C@@H](CO)[C@H](O)[C@H]7O)[C@H](O)[C@H]6O)C(C)(C)[C@@H]5CC[C@]43C)[C@@H]2C1 | -31
C[C@@H]1CC(=O)c2c(ccc3c2C(=O)c2cccc(O)c2C3=O)C1 | 7
C/C=C/C[C@@H](C)[C@@H](O)[C@H]1C(=O)N[C@@H](C(C)C)C(=O)N(C)CC(=O)N(C)[C@@H](CC(C)C)C(=O)N[C@@H](C(C)C)C(=O)N(C)[C@@H](CC(C)C)C(=O)N[C@@H](C)C(=O)N[C@H](C)C(=O)N(C)[C@@H](CC(C)C)C(=O)N(C)[C@@H](CC(C)C)C(=O)N(C)[C@@H](C(C)C)C(=O)N1C | -15

Block 3
Target: Tyrosine-protein kinase receptor TYRO3 (TYRO3, Homo sapiens, UniProt Q06418)
Effect on: enzyme activity
Action: inhibitor
Tested at: 0.5 µM
Baseline: control
Target sequence (Q06418 1-890): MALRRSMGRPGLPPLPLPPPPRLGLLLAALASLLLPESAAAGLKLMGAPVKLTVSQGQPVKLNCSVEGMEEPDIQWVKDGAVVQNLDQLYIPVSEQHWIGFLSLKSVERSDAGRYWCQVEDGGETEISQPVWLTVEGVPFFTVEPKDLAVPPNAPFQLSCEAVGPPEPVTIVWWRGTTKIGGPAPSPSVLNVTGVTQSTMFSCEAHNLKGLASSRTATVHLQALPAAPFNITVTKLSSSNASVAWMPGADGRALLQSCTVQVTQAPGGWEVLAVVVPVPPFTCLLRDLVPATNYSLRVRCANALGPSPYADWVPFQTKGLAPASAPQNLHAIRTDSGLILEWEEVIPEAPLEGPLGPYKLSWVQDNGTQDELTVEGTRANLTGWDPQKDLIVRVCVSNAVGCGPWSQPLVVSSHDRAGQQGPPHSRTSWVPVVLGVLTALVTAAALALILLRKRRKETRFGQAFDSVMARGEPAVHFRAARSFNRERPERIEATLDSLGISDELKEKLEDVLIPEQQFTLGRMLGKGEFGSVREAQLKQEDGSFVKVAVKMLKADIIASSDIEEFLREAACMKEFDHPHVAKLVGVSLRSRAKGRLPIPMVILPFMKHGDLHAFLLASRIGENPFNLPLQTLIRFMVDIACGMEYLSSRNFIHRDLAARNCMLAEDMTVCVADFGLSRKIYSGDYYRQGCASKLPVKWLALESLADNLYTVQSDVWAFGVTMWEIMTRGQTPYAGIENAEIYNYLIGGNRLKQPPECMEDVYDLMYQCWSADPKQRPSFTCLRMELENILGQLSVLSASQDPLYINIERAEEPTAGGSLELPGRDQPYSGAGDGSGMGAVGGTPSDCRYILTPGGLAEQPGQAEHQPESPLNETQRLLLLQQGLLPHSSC
SMILES | remaining activity [%]
CN([C@@H](Cc1ccc(OS(=O)(=O)c2cccc3cnccc23)cc1)C(=O)N1CCN(c2ccccc2)CC1)S(=O)(=O)c1cccc2cnccc12 | 101
O=C1c2ccccc2-c2n[nH]c3cccc1c23 | 88.4
COc1cc2ncnc(Nc3ccc(O)c(Br)c3)c2cc1OC | 78.6
CCN(CC)CCNC(=O)c1c(C)[nH]c(/C=C2\C(=O)Nc3ccc(F)cc32)c1C | 28.3
O=C(NC(NC(=S)Nc1ccc(F)c([N+](=O)[O-])c1)C(Cl)(Cl)Cl)C(c1ccccc1)c1ccccc1 (stereo not drawn) | 108
CCN(CC)C(=O)c1ccc(Nc2nc(OCC3CCCCC3)c3[nH]cnc3n2)cc1 | 90.4
C[C@@H]1CCN(C(=O)CC#N)C[C@@H]1N(C)c1ncnc2[nH]ccc12 | 103
N#C/C(=C\c1ccc(O)c(O)c1)C(=O)NCc1ccccc1 | 109
c1ccc(-c2cnc(Nc3ccc(OCCN4CCCC4)cc3)s2)cc1 | 90.9
COc1cc2c(cc1OC)-c1[nH]nc(Nc3cccc(F)c3)c1C2 | 97.2
Cc1cn(-c2cc(NC(=O)c3ccc(C)c(Nc4nccc(-c5cccnc5)n4)c3)cc(C(F)(F)F)c2)cn1 | 96.5
O=C1C(Cl)=C(N2C(=O)CCC2=O)C(=O)c2ccccc21 | 114
Cc1nc2cc3nc(-c4cccs4)cnc3cc2n1C | 103
COc1cc2ncnc(Nc3cccc(Cl)c3)c2cc1OC | 96.7
Cn1nc2c3c(cccc31)C(=O)c1ccccc1-2 | 99.8
O=C(Nc1cccc(Nc2nccc(Nc3cccc(C(F)(F)F)c3)n2)c1)C1CC1 | 93.8
Ic1cccc(CSc2nnc(-c3ccncc3)o2)c1 | 103
Nc1cccc(-c2cc3c(Oc4cccc(O)c4)ncnc3[nH]2)c1 | 52.1
O=c1cc(-c2cccc3c2Sc2ccccc2S3)oc(N2CCOCC2)c1 | 105
CCN(CC)CCNC(=O)c1c(C)[nH]c(/C=C2\C(=O)Nc3ccc(Cl)cc32)c1C | 23.2
c1ccc(-c2[nH]ncc2-c2ccnc3ccccc23)nc1 | 124
Cc1cc2ncc(-c3ccccc3)nc2cc1C | 90.9
N#Cc1c(NC(=O)c2cccc3ccccc23)sc2c1CCCC2 | 101

Block 4
Compound: CC(C)CN(C)c1nc(N)c(C(=O)N=C(N)N)nc1Cl
Effect on: β-arrestin recruitment
Action: agonist
Technique: PRESTO-Tango
Tested at: 10 µM
Baseline: untreated
target | fold over basal
HTR1A (Homo sapiens, UniProt P08908) | 1.22
P2Y purinoceptor 14 (P2RY14, Homo sapiens, UniProt Q15391) | 1.2
TACR3 (Homo sapiens, UniProt P29371) | 1.02 fold
BDKRB1 (Homo sapiens, UniProt P46663) | 1.03
PROKR2 (Homo sapiens, UniProt Q8NFJ6) | 0.74
GPR35 (Homo sapiens, UniProt Q9HC97) | 1.08
BDKRB2 (Homo sapiens, UniProt P30411) | 0.77
SUCNR1 (Homo sapiens, UniProt Q9BXA5) | 1.18 fold
PTH2R (Homo sapiens, UniProt P49190) | 0.54
CXCR2 (Homo sapiens, UniProt P25025) | 1.02
CYSLTR1 (Homo sapiens, UniProt Q9Y271) | 1.29
Adhesion G protein-coupled receptor F4 (ADGRF4, Homo sapiens, UniProt Q8IZF3) | 0.9
CCR6 (Homo sapiens, UniProt P51684) | 0.99
C5AR1 (Homo sapiens, UniProt P21730) | 0.69
Oxytocin receptor (OXTR, Homo sapiens, UniProt P30559) | 0.79
MC5R (Homo sapiens, UniProt P33032) | 1.1

Excerpt of the above (block 4):
target | fold over basal
CYSLTR1 (Homo sapiens, UniProt Q9Y271) | 1.29
Adhesion G protein-coupled receptor F4 (ADGRF4, Homo sapiens, UniProt Q8IZF3) | 0.9
C5AR1 (Homo sapiens, UniProt P21730) | 0.69
GPR35 (Homo sapiens, UniProt Q9HC97) | 1.08
P2Y purinoceptor 14 (P2RY14, Homo sapiens, UniProt Q15391) | 1.2
PROKR2 (Homo sapiens, UniProt Q8NFJ6) | 0.74
